Measured values collected from several papers.
Each line is one published result; not all experiments were run side by side. pKi: −log10 of the molar value.
SLC6A4: Sodium-dependent serotonin transporter (SLC6A4, Homo sapiens, UniProt P31645)
Sequence of UniProt P31645 (whole entry, unmodified, looked up): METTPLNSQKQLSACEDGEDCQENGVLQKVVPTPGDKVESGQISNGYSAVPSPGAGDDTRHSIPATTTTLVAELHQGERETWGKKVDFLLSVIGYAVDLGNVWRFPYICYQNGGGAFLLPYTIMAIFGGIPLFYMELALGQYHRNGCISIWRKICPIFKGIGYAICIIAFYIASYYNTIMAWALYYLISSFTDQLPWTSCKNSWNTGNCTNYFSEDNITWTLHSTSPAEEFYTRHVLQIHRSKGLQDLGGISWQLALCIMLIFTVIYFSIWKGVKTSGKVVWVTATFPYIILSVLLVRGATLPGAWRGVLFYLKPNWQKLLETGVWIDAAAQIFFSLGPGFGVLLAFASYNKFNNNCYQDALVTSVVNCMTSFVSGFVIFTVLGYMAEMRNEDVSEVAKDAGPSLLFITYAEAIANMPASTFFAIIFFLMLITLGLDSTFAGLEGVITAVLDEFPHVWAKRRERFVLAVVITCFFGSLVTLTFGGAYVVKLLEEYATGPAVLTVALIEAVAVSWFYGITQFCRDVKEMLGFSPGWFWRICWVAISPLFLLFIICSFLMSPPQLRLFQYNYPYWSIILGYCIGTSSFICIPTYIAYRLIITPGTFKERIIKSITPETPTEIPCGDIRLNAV

SMILES | target | test | conditions | pKi
C=C[C@H]1C[N@@]2CC[C@H]1C[C@@H]2[C@@H](O)c1ccnc2ccccc12 | SLC6A4 (Homo sapiens, UniProt P31645, S438T) | transporter uptake, inhibitor, radiometric |  | 5.27
CCCC(C(=O)c1ccc2ccccc2c1)N1CCCC1 (stereo not drawn) | SLC6A4 | ligand displacement, radioligand | cell membranes | 7.83
CCCC(NC)C(=O)c1ccc(C)cc1 (stereo not drawn) | SLC6A4 | ligand displacement, radioligand | cell membranes | 5.21
CCN(CC)C(=O)[C@@H]1C=C2c3cccc4[nH]cc(c34)C[C@H]2N(C)C1 | SLC6A4 | ligand displacement, radioligand |  | < 5.00
CC(C(=O)c1ccc2c(c1)OCO2)N(C)C (stereo not drawn) | SLC6A4 | ligand displacement, radioligand | cell membranes | < 5.00
CNC(C)C(=O)c1ccc(F)cc1 (stereo not drawn) | SLC6A4 | ligand displacement, radioligand | cell membranes | < 4.00
c1ccc([C@@H]2CCNC[C@H]2COc2ccc3c(c2)OCO3)cc1 | SLC6A4 | transporter uptake, inhibitor, radiometric |  | 9.01
CNC(C)C(=O)c1ccccc1 (stereo not drawn) | SLC6A4 | ligand displacement, radioligand | cell membranes | < 4.00
CCCC(NCC)C(=O)c1ccc2c(c1)OCO2 (stereo not drawn) | SLC6A4 | ligand displacement, radioligand | cell membranes | 6.05

Excerpt of the above:
SMILES | target | test | conditions | pKi
CCN(CC)C(=O)[C@@H]1C=C2c3cccc4[nH]cc(c34)C[C@H]2N(C)C1 | SLC6A4 | ligand displacement, radioligand |  | < 5.00
